Experimental data of several laboratories.
Lines come from different studies, so protocols differ.

Compound = C[C@@H](c1ccn(Cc2ccc(C#N)cc2)n1)[C@](O)(Cn1cnnn1)c1ccc(F)cc1F; organism = Candida tropicalis; assay = growth, broth microdilution; system = 2718; setting = 24 h, 30 °C, ≥50% inhibition; MIC = < 0.008 µg/mL
Compound = CN(C)c1cc(CNC2CCCC2)c(O)c2c1C[C@H]1C[C@H]3[C@H](N(C)C)C(O)=C(C(N)=O)C(=O)[C@@]3(O)C(O)=C1C2=O; organism = Streptococcus pneumoniae; system = 157E; setting = 50% mouse serum; MIC = < 0.06 µg/mL
Compound = CC(C)C[C@H](NC(=O)[C@H](CC(N)=O)NC(=O)[C@H](CCCNC(=N)N)NC(=O)[C@@H](CC(C)C)NC(=O)[C@H](Cc1ccccc1)NC(=O)[C@H](CC(=O)O)NC(=O)[C@H](CCCCN)NC(=O)[C@@H](CC(C)C)NC(=O)[C@H](CCCNC(=N)N)NC(=O)[C@H](CCC(N)=O)NC(=O)[C@@H](NC(=O)[C@@H](CC(C)C)NC(=O)[C@H](CCCNC(=N)N)NC(=O)[C@H](CCCCN)NC(=O)[C@H](Cc1ccc(C(F)(F)F)cc1)NC(=O)CN)C(C)C)C(=O)N[C@H](C(N)=O)C(C)C; organism = ESKAPE pathogens; setting = most strains; MIC = 25 to 50 µM
Compound = C[C@@H](c1ccn(Cc2cc(F)cc(F)c2)n1)[C@](O)(Cn1cnnn1)c1ccc(F)cc1F; organism = Candida tropicalis; assay = growth, broth microdilution; system = 2718; setting = 24 h, 30 °C, ≥50% inhibition; MIC = < 0.008 µg/mL
Compound = CC1CCN(Cc2cc(N(C)C)c3c(c2O)C(=O)C2=C(O)[C@]4(O)C(=O)C(C(N)=O)=C(O)[C@@H](N(C)C)[C@@H]4C[C@@H]2C3)CC1; organism = Streptococcus pneumoniae; assay = microbial growth, broth dilution; MIC = < 0.06 µg/mL
Compound = C[C@@H](c1ccn(Cc2ccc(C(F)(F)F)cc2)n1)[C@](O)(Cn1cnnn1)c1ccc(F)cc1F; organism = Candida tropicalis; assay = growth, broth microdilution; system = 2718; setting = 24 h, 30 °C, ≥50% inhibition; MIC = < 0.008 µg/mL
Compound = CN(C)c1cc(CNC2CCCCC2)c(O)c2c1C[C@H]1C[C@H]3[C@H](N(C)C)C(O)=C(C(N)=O)C(=O)[C@@]3(O)C(O)=C1C2=O; organism = Streptococcus pneumoniae; system = ATCC 700905, Tet M ribosome protection; MIC = 0.5 µg/mL
Compound = c1ccc(CN2CCOCCOCCN(CCCCCCCCCCN3CCOCCOCCN(CCCCCCCCCCN4CCOCCOCCN(Cc5ccccc5)CCOCCOCC4)CCOCCOCC3)CCOCCOCC2)cc1; organism = Streptococcus pneumoniae; assay = microbial growth; MIC = 6 µM
Compound = CC[C@@H](C)[C@@H](NC(=O)[C@@H](C)NC(=O)[C@@H](CCCCN)NC(=O)[C@@H](CC(C)C)NC(=O)[C@@H](CC(C)C)NC(=O)[C@H](NC(=O)[C@@H](CCCCN)NC(=O)[C@@H](CC(C)C)NC(=O)[C@@H](CCCCN)NC(=O)[C@@H](CCCCN)NC(=O)[C@@H](CCCCN)NC(=O)[C@@H](CCCCN)NC(=O)[C@@H](C)NC(=O)[C@@H](CCCCN)NC(=O)[C@@H](CO)NC(=O)[C@@H](Cc1ccccc1)NC(=O)[C@H](NC(=O)[C@@H](CCCCN)NC(=O)[C@@H](CC(C)C)NC(=O)[C@@H](Cc1ccccc1)NC(=O)[C@@H](CO)NC(=O)[C@@H](CCCCN)NC(=O)[C@@H](Cc1c[nH]c2ccccc12)NC(=O)[C@@H](CCCCN)NC(C)=O)[C@H](C)O)[C@H](C)O)C(=O)N[C@H](CO)C(=O)N[C@H](CCCCN)C(N)=O; organism = Acinetobacter baumannii; system = 1012, Mueller-Hinton broth; setting = 24 h, 37 °C; MIC = 0.6 µM
Compound = Oc1c(Cl)cc(Cl)c2cccnc12; organism = Saccharomyces cerevisiae; assay = microbial growth, agar dilution; system = ATCC2601; MIC = 37.4 µM
Compound = CC[C@@H](C)[C@@H](NC(=O)[C@@H](C)NC(=O)[C@@H](CCCCN)NC(=O)[C@@H](CC(C)C)NC(=O)[C@@H](C)NC(=O)[C@H](NC(=O)[C@@H](Cc1c[nH]cn1)NC(=O)[C@@H](CC(C)C)NC(=O)[C@H](NC(=O)[C@H](NC(=O)[C@@H](CCCCN)NC(=O)[C@H](NC(=O)[C@@H](C)NC(=O)[C@@H](CO)NC(=O)[C@@H](CCCCN)NC(=O)[C@@H](Cc1ccccc1)NC(=O)[C@H](NC(=O)[C@@H](CCCCN)NC(=O)[C@@H](CC(C)C)NC(=O)[C@@H](Cc1ccccc1)NC(=O)[C@@H](CO)NC(=O)[C@@H](CCCCN)NC(=O)[C@@H](Cc1c[nH]c2ccccc12)NC(=O)[C@@H](CCCCN)NC(C)=O)[C@H](C)O)C(C)C)[C@H](C)O)C(C)C)[C@H](C)O)C(=O)N[C@H](CO)C(=O)N[C@H](CO)C(N)=O; organism = Acinetobacter baumannii; system = 884, Mueller-Hinton broth; setting = 24 h, 37 °C; MIC = 0.7 µM
Compound = CN(C)c1cc(CNCCC(C)(C)C)c(O)c2c1C[C@H]1C[C@H]3[C@H](N(C)C)C(O)=C(C(N)=O)C(=O)[C@@]3(O)C(O)=C1C2=O; organism = Streptococcus pneumoniae; system = 157E; setting = 50% mouse serum; MIC = 0.5 µg/mL
Compound = C[C@@H](c1ccn(Cc2ccccc2)n1)[C@](O)(Cn1cnnn1)c1ccc(F)cc1F; organism = Candida tropicalis; assay = growth, broth microdilution; system = 2718; setting = 24 h, 30 °C, ≥50% inhibition; MIC = < 0.008 µg/mL
Compound = COC1CCN(Cc2cc(N(C)C)c3c(c2O)C(=O)C2=C(O)[C@]4(O)C(=O)C(C(N)=O)=C(O)[C@@H](N(C)C)[C@@H]4C[C@@H]2C3)CC1; organism = Streptococcus pneumoniae; system = ATCC 700905, Tet M ribosome protection; MIC = < 0.06 µg/mL
Compound = N#Cc1ccc2cccc(O)c2n1; organism = Saccharomyces cerevisiae; assay = microbial growth, agar dilution; system = ATCC2601; MIC = > 1500 µM
Compound = C[C@@H](c1ccn(Cc2ccc(Cl)c(Cl)c2)n1)[C@](O)(Cn1cnnn1)c1ccc(F)cc1F; organism = Candida tropicalis; assay = growth, broth microdilution; system = 2718; setting = 24 h, 30 °C, ≥50% inhibition; MIC = 0.016 µg/mL
Compound = CC[C@@H](C)[C@@H](NC(=O)[C@@H](C)NC(=O)[C@@H](CCCCN)NC(=O)[C@@H](CC(C)C)NC(=O)[C@@H](C)NC(=O)[C@H](NC(=O)[C@@H](CCCCN)NC(=O)[C@@H](CC(C)C)NC(=O)[C@H](NC(=O)[C@@H](CCCCN)NC(=O)[C@@H](CCCCN)NC(=O)[C@@H](CCCCN)NC(=O)[C@@H](C)NC(=O)[C@@H](CCCCN)NC(=O)[C@@H](CO)NC(=O)[C@@H](Cc1ccccc1)NC(=O)[C@H](NC(=O)[C@@H](CCCCN)NC(=O)[C@@H](CC(C)C)NC(=O)[C@@H](Cc1ccccc1)NC(=O)[C@@H](CO)NC(=O)[C@@H](CCCCN)NC(=O)[C@@H](Cc1c[nH]c2ccccc12)NC(=O)[C@@H](CCCCN)NC(C)=O)[C@H](C)O)C(C)C)[C@H](C)O)C(=O)N[C@H](CO)C(=O)N[C@H](CCCCN)C(N)=O; organism = Acinetobacter baumannii; assay = broth microdilution; system = ATCC 19606; setting = 24 h, 37 °C; MIC = 0.7 µM
Compound = C[C@@H](c1ccn(Cc2cccc(F)c2F)n1)[C@](O)(Cn1cnnn1)c1ccc(F)cc1F; organism = Candida tropicalis; assay = growth, broth microdilution; system = 2718; setting = 24 h, 30 °C, ≥50% inhibition; MIC = < 0.008 µg/mL
Compound = CN(C)c1cc(CNCc2ccco2)c(O)c2c1C[C@H]1C[C@H]3[C@H](N(C)C)C(O)=C(C(N)=O)C(=O)[C@@]3(O)C(O)=C1C2=O; organism = Streptococcus pneumoniae; assay = microbial growth, broth dilution; MIC = 0.5 µg/mL
Compound = CC[C@@H](C)[C@@H](NC(=O)[C@@H](C)NC(=O)[C@@H](CCCCN)NC(=O)[C@@H](CC(C)C)NC(=O)[C@@H](CC(C)C)NC(=O)[C@H](NC(=O)[C@@H](CCCCN)NC(=O)[C@@H](CC(C)C)NC(=O)[C@@H](C)NC(=O)[C@@H](CCCCN)NC(=O)[C@@H](CCCCN)NC(=O)[C@@H](CCCCN)NC(=O)[C@@H](C)NC(=O)[C@@H](CCCCN)NC(=O)[C@@H](CO)NC(=O)[C@@H](Cc1ccccc1)NC(=O)[C@H](NC(=O)[C@@H](CCCCN)NC(=O)[C@@H](CC(C)C)NC(=O)[C@@H](Cc1ccccc1)NC(=O)[C@@H](CO)NC(=O)[C@@H](CCCCN)NC(=O)[C@@H](Cc1c[nH]c2ccccc12)NC(=O)[C@@H](CCCCN)NC(C)=O)[C@H](C)O)[C@H](C)O)C(=O)N[C@H](CO)C(=O)N[C@H](CCCCN)C(N)=O; organism = Acinetobacter baumannii; system = 689, Mueller-Hinton broth; setting = 24 h, 37 °C; MIC = 1.3 µM

For quick reference, copied from above:
Compound = Oc1c(Cl)cc(Cl)c2cccnc12; organism = Saccharomyces cerevisiae; assay = microbial growth, agar dilution; system = ATCC2601; MIC = 37.4 µM
